Earlier results, collected from citations in different studies.
Each numbered part shows a few of the values that one paper quotes. In brackets after ≈: the same amount, converted by molar mass.

Block 1
Target: HLA class I histocompatibility antigen, B alpha chain, allele B*46:01 (Homo sapiens, UniProt P01889)
Read-out: peptide-MHC binding
Molecule type: peptide
`LVQPGRSL` gave an IC50 of 6230 nM.
The IC50 of `KAFSPEVI` is reported as 1360 nM.
`KTDEVVTL` gave an IC50 of 39800 nM.

Further values, each from its own experiment
For `O=c1cc(-c2ccc(O)cc2)oc2cc(O)c(O)c(O)c12`, the IC50 was 860 nM (SARS-CoV-2 NSP13 helicase; enzyme activity, inhibitor).
Under activity, `Picrotoxin` is recorded as “inactive” (Cryptosporidium parvum; HTS; concentration not given).
The IC50 of `COc1cccc(CCc2cc(O)c(=O)[nH]n2)c1` is reported as 5.6 nM (D-amino acid oxidase rat; inhibitor).
With `Cc1c(Cc2ccc(C(F)(F)F)cc2F)c[nH]c1C(=O)NC1CC1` the EC50 was 16 nM (Plasmodium falciparum; parasite growth; 3D7).
`C1=C2CCCN[C@H]2[C@@H]2C[C@H]1[C@H]1CCCCN1C2`: activity class “inactive” (cathepsin L; concentration not given).
The solubility of `CCN(CC)CCOc1ccc2c(c1)C(=O)c1cc(OCCN(CC)CC)ccc1-2` is reported as 465 µM (≈ 191 µg/mL) (pH 7.4).

Excerpt of the above (block 1):
`KTDEVVTL` gave an IC50 of 39800 nM.
